Earlier results as cited in several papers.
Numbers after ± are the reported error.
F2: Prothrombin (F2, Bos taurus, UniProt P00735)
B1: CX3CL1, human; sequence looked up; chain QHHGVTKCNITCSKMTSKIPVALLIHYQQNQASCGKRAIILETRQHRLFCADPKEQWVKDAMQHLDRQAAALTRNGGTFEKQIGEVKPRTTPAAGGMDESVVLEPEATGESSSLEPTPSSQEAQRALGTSPELPTGVTGSSGTRLPPTPKAQDGGPVGTELFRVPPVSTAATWQSSAPHQPGPSLWAEAKTSEAPSTQDPSTQASTASSPAPEENAPSEGQRVWGQGQSPRPENSLEREEMGPVPAHTDAFQDWGPGSMAHVSVVPVSSEGTPSREPVASGSWTPKAEEPIHATMDPQRLGVLITPVPDAQAATRRQAVGLLAFLGLLFCLGVAMFTYQSLQGCPRKMAGEMAEGLRYIPRSCGSNSYVLVPV
B2: CCL4; sequence looked up; chain APMGSDPPTACCFSYTARKLPRNFVVDYYETSSLCSQPAVVFQTKRSKQVCADPSESWVQEYVYDLELN
Chain of UniProt P04191 (whole entry, looked up): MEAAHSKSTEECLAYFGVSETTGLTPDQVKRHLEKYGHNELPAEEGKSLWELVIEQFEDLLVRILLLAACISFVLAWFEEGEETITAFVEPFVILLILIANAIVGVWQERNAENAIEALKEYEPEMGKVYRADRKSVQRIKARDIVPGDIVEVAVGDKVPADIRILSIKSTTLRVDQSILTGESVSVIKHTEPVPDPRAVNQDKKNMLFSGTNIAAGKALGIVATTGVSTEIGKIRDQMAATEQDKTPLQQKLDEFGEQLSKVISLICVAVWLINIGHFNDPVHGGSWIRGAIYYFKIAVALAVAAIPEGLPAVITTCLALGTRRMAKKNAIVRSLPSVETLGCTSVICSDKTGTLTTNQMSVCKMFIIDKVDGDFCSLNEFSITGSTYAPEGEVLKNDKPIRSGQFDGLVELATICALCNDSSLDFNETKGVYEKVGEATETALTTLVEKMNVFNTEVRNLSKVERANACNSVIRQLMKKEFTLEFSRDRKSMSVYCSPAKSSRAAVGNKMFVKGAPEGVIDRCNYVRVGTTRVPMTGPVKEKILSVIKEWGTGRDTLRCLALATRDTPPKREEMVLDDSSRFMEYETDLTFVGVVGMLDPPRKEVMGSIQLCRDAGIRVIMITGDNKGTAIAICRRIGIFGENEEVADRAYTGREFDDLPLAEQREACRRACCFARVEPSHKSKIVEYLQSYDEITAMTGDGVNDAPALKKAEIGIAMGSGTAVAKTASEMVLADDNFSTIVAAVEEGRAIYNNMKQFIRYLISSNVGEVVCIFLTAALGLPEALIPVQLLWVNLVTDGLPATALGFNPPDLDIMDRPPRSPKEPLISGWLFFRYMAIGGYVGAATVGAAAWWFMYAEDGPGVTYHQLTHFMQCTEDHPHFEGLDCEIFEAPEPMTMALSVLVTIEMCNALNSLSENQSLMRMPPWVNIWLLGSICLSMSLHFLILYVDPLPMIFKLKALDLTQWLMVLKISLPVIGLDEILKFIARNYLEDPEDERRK
Chain of UniProt Q8HXS3 (whole entry, looked up): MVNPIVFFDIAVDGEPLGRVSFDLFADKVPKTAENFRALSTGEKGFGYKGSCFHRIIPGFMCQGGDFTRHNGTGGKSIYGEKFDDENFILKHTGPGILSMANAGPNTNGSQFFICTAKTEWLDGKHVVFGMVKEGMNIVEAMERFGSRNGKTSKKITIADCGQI
Chain of UniProt P28472 (whole entry, unmodified, looked up): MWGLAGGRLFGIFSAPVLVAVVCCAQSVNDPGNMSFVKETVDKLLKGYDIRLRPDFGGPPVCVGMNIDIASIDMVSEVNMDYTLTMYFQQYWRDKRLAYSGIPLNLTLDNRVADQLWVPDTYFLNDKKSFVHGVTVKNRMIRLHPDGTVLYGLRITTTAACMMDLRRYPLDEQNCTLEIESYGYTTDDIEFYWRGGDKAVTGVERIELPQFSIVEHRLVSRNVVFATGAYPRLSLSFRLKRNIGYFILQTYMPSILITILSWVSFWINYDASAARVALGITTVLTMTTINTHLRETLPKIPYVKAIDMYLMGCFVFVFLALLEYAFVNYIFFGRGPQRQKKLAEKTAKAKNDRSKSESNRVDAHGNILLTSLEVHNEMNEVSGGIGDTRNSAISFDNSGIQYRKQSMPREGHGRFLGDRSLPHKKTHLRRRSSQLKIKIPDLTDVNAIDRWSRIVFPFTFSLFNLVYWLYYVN
Chain of UniProt P14867 (whole entry, unmodified, looked up): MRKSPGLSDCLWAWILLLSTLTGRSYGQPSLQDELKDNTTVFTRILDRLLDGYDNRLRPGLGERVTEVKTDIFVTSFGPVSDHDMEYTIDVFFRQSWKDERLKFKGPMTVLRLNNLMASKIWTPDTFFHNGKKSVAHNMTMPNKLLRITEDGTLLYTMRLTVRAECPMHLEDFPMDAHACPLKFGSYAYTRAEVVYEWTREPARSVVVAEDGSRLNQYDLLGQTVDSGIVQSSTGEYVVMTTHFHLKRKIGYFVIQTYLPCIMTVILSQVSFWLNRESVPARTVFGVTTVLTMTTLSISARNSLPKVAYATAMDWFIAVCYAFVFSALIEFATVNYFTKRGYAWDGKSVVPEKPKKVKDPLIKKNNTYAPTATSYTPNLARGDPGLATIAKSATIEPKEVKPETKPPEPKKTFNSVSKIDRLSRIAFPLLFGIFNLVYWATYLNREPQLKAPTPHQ

pegcetacoplan  level, dose, no toxic effect (rabbit; subcutaneous, 28 days, daily, GLP study): 7 mg/kg/day
B1 (CX3CL1, human)  Kd (US28 T11A; binding, radioligand competition): 0.5 nM
abciximab  anti-drug antibody incidence (PCI patients; dose not given, re-administration): 20%
B2 (CCL4)  Kd (US28 wild type; binding, radioligand competition): 1.7 nM
AEQNPIYWARYADWLFTTPLLLLDLALLVDADEGT (pHLIP (Halobacterium salinarum))  pKa (NMR, measured: Asp33; peptide, lipid membrane; numbering of the source): 6.3
buforin II  MIC (Enterococcus faecalis; KCTC 3511; literature value): 50 µM
TFELQGVVPRGVNL (V29F)  Km (F2; substrate, HPLC; peptide): 195 ± 34 µM
CCL5  Kd (US28 D15A; binding, radioligand competition): 1.9 nM
melittin  MIC (Bacillus subtilis; KCTC 3068; literature value): < 3.1 µM
DFLAEGGGVRGPRV  kcat (F2; substrate, HPLC; peptide): 39.3 ± 2.6 s⁻¹
KKTKPTPPPKPSHLK  Kd (yeast Abp1 SH3 domain; binding; peptide): 770 nM
SFLLRNPNDKYEPF  concentration ratio (oocytes expressing thrombin receptor; maximal 45Ca2+ release; peptide; relative to: alpha-thrombin): 100 fold
TVELQGVVPRGVNL  kcat (F2; substrate, HPLC; peptide): 6.4 ± 0.03 s⁻¹
cyclopropyl methoxycarbonyl metomidate  EC50 (GABA-A receptor alpha-1/beta-3, with gamma-2 subunit (GABRA1/GABRB3, Homo sapiens, UniProt P14867+P28472, L291T); ion current, agonist; Xenopus oocytes; direct activation; relative to: 100 µM GABA peak current): 3.8 µM
ε-poly-L-lysine  time to full-thickness penetration (bovine cartilage explants): ≤ 6 h
YRQSMNNFQGLRSFGCRFGTCTVQKLAHQIYQFTDKDKDNVAPRSKISPQGY (biotin-labelled)  half-life (human, plasma): 22 min
CCL3  Kd (US28 F14A; binding, radioligand competition): 15 nM
neurotensin  binding (NTS1 Y347A; concentration not given): no binding
VVIA  IC50 (Aβ42-induced neurotoxicity; inhibitor, LDH release; peptide, differentiated PC-12): 47 ± 14 µM
enfortumab vedotin  clearance (monkey): 1.2 mL/h/kg
calcein AM  hydrodynamic radius (MDA-MB-231 cells; viscosity probe): 0.65 nm
phospholamban  KCa (ATP2A1 (Oryctolagus cuniculus, UniProt P04191); calcium affinity): 0.88 ± 0.03 µM
capsid protein (Feline immunodeficiency virus, UniProt P16087)  Kd (PPIA (Felis catus, UniProt Q8HXS3); ITC): 6200 nM
